Experimental data pooled from the literature.
Each line is one published result; not all experiments were run side by side. Several values in a cell are separate wells, animals, samples, runs or records. ± gives the spread as reported.
HTR1D: 5-hydroxytryptamine receptor 1D (HTR1D, Homo sapiens, UniProt P28221)
Chain of UniProt P28221 (whole entry, looked up): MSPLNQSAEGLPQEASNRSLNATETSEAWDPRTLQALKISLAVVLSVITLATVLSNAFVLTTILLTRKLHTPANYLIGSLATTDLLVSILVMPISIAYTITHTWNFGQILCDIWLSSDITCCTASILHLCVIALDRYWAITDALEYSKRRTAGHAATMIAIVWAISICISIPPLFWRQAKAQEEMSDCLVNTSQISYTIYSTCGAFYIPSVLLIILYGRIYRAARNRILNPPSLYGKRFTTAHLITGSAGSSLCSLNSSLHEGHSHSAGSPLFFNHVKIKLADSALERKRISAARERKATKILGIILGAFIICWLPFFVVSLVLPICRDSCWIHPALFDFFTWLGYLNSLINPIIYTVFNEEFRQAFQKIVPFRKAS
Cgas: Cyclic GMP-AMP synthase (Cgas, Mus musculus, UniProt Q8C6L5)
Chain of UniProt Q8C6L5 (whole entry, looked up): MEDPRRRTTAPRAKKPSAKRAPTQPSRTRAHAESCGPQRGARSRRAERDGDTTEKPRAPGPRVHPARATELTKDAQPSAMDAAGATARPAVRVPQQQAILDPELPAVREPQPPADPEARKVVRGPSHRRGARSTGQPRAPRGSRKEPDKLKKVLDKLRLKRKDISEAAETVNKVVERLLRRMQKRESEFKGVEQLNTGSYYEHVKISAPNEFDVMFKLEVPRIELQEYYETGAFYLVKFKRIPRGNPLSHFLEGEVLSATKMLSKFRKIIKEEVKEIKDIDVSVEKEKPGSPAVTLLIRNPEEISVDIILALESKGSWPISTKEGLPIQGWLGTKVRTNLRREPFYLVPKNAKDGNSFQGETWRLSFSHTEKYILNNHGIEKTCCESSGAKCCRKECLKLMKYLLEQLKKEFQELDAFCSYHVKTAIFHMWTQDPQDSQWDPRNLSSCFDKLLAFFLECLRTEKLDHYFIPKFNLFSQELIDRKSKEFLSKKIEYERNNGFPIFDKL
Kcnc1: Voltage-gated potassium channel KCNC1 (Kcnc1, Mus musculus, UniProt P15388)
Chain of UniProt P15388 (whole entry, looked up): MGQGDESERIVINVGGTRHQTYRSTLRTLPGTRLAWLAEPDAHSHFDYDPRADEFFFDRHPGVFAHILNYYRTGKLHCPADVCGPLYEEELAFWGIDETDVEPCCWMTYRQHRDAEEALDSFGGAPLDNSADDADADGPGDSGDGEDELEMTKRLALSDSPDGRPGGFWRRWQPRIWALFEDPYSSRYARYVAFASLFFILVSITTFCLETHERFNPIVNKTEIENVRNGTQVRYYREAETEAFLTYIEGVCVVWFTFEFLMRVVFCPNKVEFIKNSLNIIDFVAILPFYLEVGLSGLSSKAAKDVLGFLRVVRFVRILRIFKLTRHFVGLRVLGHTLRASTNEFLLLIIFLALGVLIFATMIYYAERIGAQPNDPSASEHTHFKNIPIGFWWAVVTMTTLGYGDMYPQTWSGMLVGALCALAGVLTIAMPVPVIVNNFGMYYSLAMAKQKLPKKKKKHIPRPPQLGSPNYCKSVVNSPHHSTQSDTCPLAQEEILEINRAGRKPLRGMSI
Chain of UniProt Q92793 (whole entry, looked up): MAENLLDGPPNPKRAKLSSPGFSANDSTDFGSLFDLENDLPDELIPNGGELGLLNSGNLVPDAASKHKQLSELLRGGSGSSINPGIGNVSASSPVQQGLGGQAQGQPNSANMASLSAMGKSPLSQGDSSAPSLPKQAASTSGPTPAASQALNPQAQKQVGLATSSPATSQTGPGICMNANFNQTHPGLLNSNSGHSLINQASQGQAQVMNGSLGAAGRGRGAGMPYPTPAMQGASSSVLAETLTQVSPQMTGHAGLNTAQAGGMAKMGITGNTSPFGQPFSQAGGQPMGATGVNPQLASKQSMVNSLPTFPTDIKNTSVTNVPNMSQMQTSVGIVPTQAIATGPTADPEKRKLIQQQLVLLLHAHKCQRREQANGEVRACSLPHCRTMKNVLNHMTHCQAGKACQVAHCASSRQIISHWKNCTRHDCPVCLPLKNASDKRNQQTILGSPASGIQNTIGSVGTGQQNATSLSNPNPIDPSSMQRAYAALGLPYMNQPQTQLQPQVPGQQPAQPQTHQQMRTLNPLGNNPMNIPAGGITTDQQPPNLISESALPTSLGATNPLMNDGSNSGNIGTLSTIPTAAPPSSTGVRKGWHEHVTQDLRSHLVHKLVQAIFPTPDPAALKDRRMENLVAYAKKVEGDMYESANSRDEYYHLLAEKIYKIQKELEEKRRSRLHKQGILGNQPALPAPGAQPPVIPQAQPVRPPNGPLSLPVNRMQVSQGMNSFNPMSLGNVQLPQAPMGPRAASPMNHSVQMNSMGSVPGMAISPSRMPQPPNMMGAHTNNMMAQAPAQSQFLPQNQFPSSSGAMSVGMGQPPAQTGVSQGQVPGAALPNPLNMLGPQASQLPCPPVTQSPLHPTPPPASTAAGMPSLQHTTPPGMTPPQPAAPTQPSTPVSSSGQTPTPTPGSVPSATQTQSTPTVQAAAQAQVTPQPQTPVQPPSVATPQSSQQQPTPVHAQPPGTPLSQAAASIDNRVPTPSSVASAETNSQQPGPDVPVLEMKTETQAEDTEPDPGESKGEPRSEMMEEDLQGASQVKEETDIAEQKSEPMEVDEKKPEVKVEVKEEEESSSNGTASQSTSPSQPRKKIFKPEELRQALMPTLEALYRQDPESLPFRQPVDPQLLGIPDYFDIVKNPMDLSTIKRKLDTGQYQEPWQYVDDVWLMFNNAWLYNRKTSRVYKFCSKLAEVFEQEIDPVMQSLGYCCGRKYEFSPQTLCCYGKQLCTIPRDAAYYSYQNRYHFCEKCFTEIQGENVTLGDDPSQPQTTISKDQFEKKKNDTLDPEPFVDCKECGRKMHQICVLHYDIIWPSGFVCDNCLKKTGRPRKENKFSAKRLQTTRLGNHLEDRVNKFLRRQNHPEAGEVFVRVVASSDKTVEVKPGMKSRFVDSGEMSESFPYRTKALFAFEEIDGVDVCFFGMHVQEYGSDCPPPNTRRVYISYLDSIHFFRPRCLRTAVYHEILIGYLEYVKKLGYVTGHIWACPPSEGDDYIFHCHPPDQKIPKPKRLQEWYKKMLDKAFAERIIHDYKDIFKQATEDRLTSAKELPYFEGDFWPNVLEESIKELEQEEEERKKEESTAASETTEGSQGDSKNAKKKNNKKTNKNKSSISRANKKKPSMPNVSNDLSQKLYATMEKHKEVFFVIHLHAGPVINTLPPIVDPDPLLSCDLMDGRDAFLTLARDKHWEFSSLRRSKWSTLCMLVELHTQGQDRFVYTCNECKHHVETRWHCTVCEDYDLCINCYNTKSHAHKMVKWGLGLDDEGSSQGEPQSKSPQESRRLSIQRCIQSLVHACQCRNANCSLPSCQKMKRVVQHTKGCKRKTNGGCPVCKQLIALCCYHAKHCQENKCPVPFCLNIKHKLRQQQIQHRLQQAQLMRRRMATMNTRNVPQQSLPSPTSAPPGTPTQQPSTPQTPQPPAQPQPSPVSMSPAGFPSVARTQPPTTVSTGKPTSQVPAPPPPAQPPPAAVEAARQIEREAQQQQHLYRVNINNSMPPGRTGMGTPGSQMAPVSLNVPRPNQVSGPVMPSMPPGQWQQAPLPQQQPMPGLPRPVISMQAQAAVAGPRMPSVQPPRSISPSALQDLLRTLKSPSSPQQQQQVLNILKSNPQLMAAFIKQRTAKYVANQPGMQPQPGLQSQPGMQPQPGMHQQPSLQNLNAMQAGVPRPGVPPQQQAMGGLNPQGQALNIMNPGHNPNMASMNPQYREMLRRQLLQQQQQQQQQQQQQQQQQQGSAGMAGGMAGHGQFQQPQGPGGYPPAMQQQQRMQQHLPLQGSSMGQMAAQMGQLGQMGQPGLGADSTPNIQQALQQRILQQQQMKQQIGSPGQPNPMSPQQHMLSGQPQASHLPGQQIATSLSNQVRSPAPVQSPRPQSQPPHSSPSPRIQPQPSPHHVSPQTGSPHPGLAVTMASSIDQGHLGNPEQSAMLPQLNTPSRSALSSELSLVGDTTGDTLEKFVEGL
Chain of UniProt P43119 (whole entry, looked up): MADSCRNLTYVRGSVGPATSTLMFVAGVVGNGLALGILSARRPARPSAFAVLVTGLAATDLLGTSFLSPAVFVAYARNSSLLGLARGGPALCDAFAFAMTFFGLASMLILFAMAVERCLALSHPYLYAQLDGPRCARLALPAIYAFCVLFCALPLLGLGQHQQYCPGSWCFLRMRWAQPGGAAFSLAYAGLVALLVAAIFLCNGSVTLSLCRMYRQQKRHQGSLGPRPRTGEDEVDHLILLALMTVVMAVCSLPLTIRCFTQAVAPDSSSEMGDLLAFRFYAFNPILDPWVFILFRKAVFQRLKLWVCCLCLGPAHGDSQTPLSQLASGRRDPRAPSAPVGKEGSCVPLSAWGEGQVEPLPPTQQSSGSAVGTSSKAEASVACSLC

Compound | tested on | assay | system | conditions | scale | measurement | result
O=C1c2ccccc2CCN1CCCCN1CCN(c2ccccn2)CC1 | HTR1D | radioligand binding |  | concentration not given, added: [3H]5-CT |  | inhibition | 68.9%
CC1=NN(c2cc(Cl)ccc2Cl)C(=O)C1=NNc1ccc(S(N)(=O)=O)cc1 | bovine α-glucosidase | enzyme activity, inhibitor, glucose oxidase |  | 200 µg/mL, added: maltose |  | inhibition | 35.1%
COc1cc(C2=CCCc3c2ccc(OC)c3OCc2ccc([N+](=O)[O-])s2)cc(OC)c1OC | tubulin | colchicine binding |  | 5 µM, added: 5.0 µM [3H]colchicine |  | inhibition | 9.2 ± 5%
CN1CC(Oc2cnc(C#N)cc2-c2ccn3nc(NC(=O)C4CC4)cc3c2)C1 | CDC42BPB (Homo sapiens, UniProt Q9Y5S2) | inhibitor, KinaseProfiler panel |  | 1 µM |  | inhibition | 22%
CC(C)(NC(=O)O[C@@H]1CN2CCC1CC2)c1csc(-c2ccc(F)cc2)n1 | AHCY (Homo sapiens, UniProt P23526) |  |  | 100 µM, counter-screen |  | inhibition | no inhibition
Cc1nc(Nc2ncc(C(=O)Nc3c(C)cccc3Cl)s2)cc(N2CCN(CCO)CC2)n1 | ERBB2 (Homo sapiens, UniProt P04626) | kinase activity, inhibitor, Kinase-Glo MAX |  | 10 µM |  | inhibition | 90.1%
CN1CCN(c2cc(-c3ccncc3)c(-c3ccc4ccccc4c3)nn2)CC1 | PTH1R (Homo sapiens, UniProt Q03431) | antagonist, FLIPR |  | 10 µM |  | inhibition | 14.5%
Clc1cccc(OC[C@@H]2CN(CCN3CCc4ccccc43)CCO2)c1 | HTR1D | radioligand binding |  | concentration not given, added: [3H]5-CT |  | inhibition | 74%
COc1cc(C2=CCCCc3c2ccc(OC)c3OC(C)c2cnc([N+](=O)[O-])n2C)cc(OC)c1OC (centres unmarked) | tubulin | colchicine binding |  | 5 µM, added: 5.0 µM [3H]colchicine |  | inhibition | 25 ± 3%
O=C(Nc1cccc2c(=O)cc(-c3nnn[nH]3)oc12)c1ccc(OCCCCc2ccccc2)cc1 | Volume-regulated anion channel subunit LRRC8C, part LRRC8A IL1 chimera (LRRC8C, Homo sapiens, UniProt Q8TDW0) | ion current, inhibitor, whole-cell patch clamp | HCT LRRC8-/- cells, transfected | 10 µM, low ionic strength swelling, +100 mV |  | inhibition | 72.4% and 80.6% and 89.9%
Cc1nn(-c2nc3c(F)cc(F)cc3s2)c(O)c1C(c1ccc(C(F)(F)F)cc1)c1c(C)nn(-c2nc3c(F)cc(F)cc3s2)c1O | Cgas | enzyme activity, inhibitor, pyrophosphatase-coupled |  | 50 µM, 1.5 h, mouse enzyme |  | inhibition | 99.5%
NC/C(=C\F)COc1cccc(Cn2c(=S)[nH]c(=O)c3[nH]cnc32)c1 | CACNA1C (Homo sapiens, UniProt Q13936) | peak ion current, inhibitor, automated patch clamp |  | 100 µM, pulse 10 |  | inhibition | 32%
CC[C@@H]1[C@H](F)C(=O)N[C@@H]1COc1nccc2cc(C(N)=O)c(OC)cc12 | CDK10 (Homo sapiens, UniProt Q15131) | ATP-site probe binding, ActivX profiling | THP-1 cell lysate | 0.2 mM, Lys2 site |  | inhibition | -14.2%
CC1=NN(c2cccc(C)c2)C(=O)C1=NNc1ccc(S(N)(=O)=O)cc1 | bovine α-glucosidase | enzyme activity, inhibitor, glucose oxidase |  | 100 µg/mL, added: maltose |  | inhibition | 33.3%
NC(CCCC(=O)O)C(=O)O (centres unmarked) |  | binding, MIDAS equilibrium dialysis LC-MS | A2AR-BRIL thermostabilized | concentration not given | relative to: no-protein control | log2 fold change | -0.105
COc1cc(C(=O)NS(=O)(=O)c2ccccc2C)ccc1Cc1cn(C)c2ccc(NC(=O)OC3CCCC3)cc12 | Volume-regulated anion channel subunit LRRC8C, part LRRC8A IL1 chimera (LRRC8C, Homo sapiens, UniProt Q8TDW0, E6A) | ion current, inhibitor, whole-cell patch clamp | HCT LRRC8-/- cells | 10 µM, +100 mV |  | inhibition | 94.1% and 87% and 92.8% and 95.6% and 92.9% and 95.3%
C[C@H]1[C@H](OC(=O)CCC(=O)O)O[C@@H]2O[C@@]3(C)CC[C@H]4[C@H](C)CC[C@@H]1[C@@]24OO3 | Non-structural polyprotein pORF1, helicase domain (Hepatitis E virus genotype 1, UniProt P33424) | ATPase activity, inhibitor, colorimetric |  | 9.7 µM, added: ATP 100 µM |  | inhibition | 17.1%
Cn1cc(-c2ccc(-c3cncc(Cl)c3N3CCC4(CCNC4=O)CC3)cc2)cn1 | COLO 205 | microarray, refers to: DBI |  | concentration not given, 6 h | relative to: untreated cells | fold change in expression | -1.55
O=C(NO)c1ccc(CN2CCCCc3ccccc32)c(F)c1 | HRH3 (Homo sapiens, UniProt Q9Y5N1) | radioligand binding, radioligand displacement |  | 10 µM |  | inhibition | 52%
Cc1nn(-c2nc3c(F)cc(F)cc3s2)c(O)c1C(c1cccc(C(F)(F)F)c1)c1c(C)nn(-c2nc3c(F)cc(F)cc3s2)c1O | Cyclic GMP-AMP synthase, catalytic domain; with DNA (CGAS, Homo sapiens, UniProt Q8N884) | cGAS phase separation, inhibitor |  | 0.781 µM |  | inhibition | 21.7%
Cc1ccc(C(=O)Nc2ccc3ccccc3c2)o1 | Kcnc1 | ion current, inhibitor, whole-cell patch clamp |  | 10 µM |  | inhibition | 14.9% and 16.4% and 8.7% and 12.7% and 23.5%
CCS(=O)(=O)c1nc(S(=O)(=O)c2ccccc2Cl)c(N2CCN(C)C(=O)[C@H]2C)s1 | HTR1D |  |  | 10 µM |  | inhibition | 31.5%
C#Cc1cc(-c2cc(Nc3nc(N[C@@H](C)c4ccc(F)cn4)ncc3Cl)n[nH]2)ccc1C=O | PNCK (Homo sapiens, UniProt Q6P2M8) | enzyme activity, inhibitor |  | 0.2 µM |  | inhibition | 19.8%
CC1=NN(c2ccc(F)cc2)C(=O)C1=NNc1ccc(S(N)(=O)=O)cc1 | bovine α-glucosidase | enzyme activity, inhibitor, glucose oxidase |  | 100 µg/mL, added: maltose |  | inhibition | 39%
Cc1c(-c2ccccc2)oc2c(C(=O)O)cccc2c1=O | LRRC8A (Homo sapiens, UniProt Q8IWT6) | endogenous hypotonicity-induced current | HEK293 | 30 µM |  | inhibition | 46.5 ± 2%

Compound | tested on | assay | system | conditions | scale | measurement | result
CCc1oc2ccccc2c1C(=O)c1cc(Br)c(O)c(Br)c1 | SLC22A12 (Homo sapiens, UniProt Q96S37, N237A) | uric acid uptake | HEK293T transfected with SLC22A12 N237A | 0.5 µM, 10 min, 37 °C, mean, added: [14C]urate 200 µM |  | inhibition | 70%
CC1=NN(c2ccccn2)C(=O)C1=NNc1ccc(S(N)(=O)=O)cc1 | bovine α-glucosidase | enzyme activity, inhibitor, glucose oxidase |  | 50 µg/mL, added: maltose |  | inhibition | 36.2%
CC(C)c1noc2ncc(C(=O)c3ccccc3O)cc12 | Kcnc1 | ion current, whole-cell patch-clamp |  | 10 µM |  | inhibition | 0.972%
[2H]c1cc(C)c(NC(=O)c2cnc(Nc3cc(N4CCCCC4)nc(C)n3)s2)c(Cl)c1 | SRC (Homo sapiens, UniProt P12931) |  |  | 0.01 µM |  | inhibition | > 90%
O=C(CN1CCO[C@H](COc2cccc(Cl)c2)C1)N1CCc2ccccc21 | HTR1D | radioligand binding |  | concentration not given, added: [3H]5-CT |  | inhibition | 18.9%
C[C@H](NC(=O)Cc1cc(F)cc(F)c1)C(=O)N[C@H](C(=O)OC(C)(C)C)c1ccccc1 | Presenilin-1, in γ-secretase complex (PSEN1, Homo sapiens, UniProt P49768) | N1-Sb1 substrate cleavage, inhibitor, AlphaLISA | cells | concentration not given |  | inhibition | 94%
CCCC[C@H](NC(=O)[C@H](C)c1c(C)[nH]c2ccc(O)cc12)c1ncc(-c2cc3ccccc3nc2OC)[nH]1 | OPRM1 (Homo sapiens, UniProt P35372) |  |  | 10 µM |  | inhibition | 66%
Ic1cccc2cnccc12 | L-type calcium channel (rat) | dihydropyridine site binding, radioligand binding |  | 10 µM |  | inhibition | 6%
CC[C@]12CCCN3CCc4c([nH]c5ccccc45)[C@]31N(Cc1cn(Cc3ccccc3)nn1)C(=O)C2 | PTGIR (Homo sapiens, UniProt P43119) | beta-arrestin recruitment, antagonist, PathHunter chemiluminescence |  | 20 µM, added: agonist at EC80 |  | inhibition | 75%
O=C1c2ccccc2CCCN1CCCCN1CCN(c2ccccn2)CC1 | HTR1D | radioligand binding |  | concentration not given, added: [3H]5-CT |  | inhibition | 77%
Cc1cn([C@H]2C[C@H](O)[C@@H](COP(=O)(O)OP(=O)(O)OP(=O)(O)O)O2)c(=O)[nH]c1=O |  | binding, MIDAS equilibrium dialysis LC-MS | A2AR-BRIL thermostabilized | concentration not given | relative to: no-protein control | log2 fold change | -0.986
Cn1cc(-c2cnc3ccc(NC(=O)Nc4ccc(F)c(Br)c4)cc3n2)cn1 | MAP3K6 (Homo sapiens, UniProt O95382) | kinase binding, KiNativ profiling, refers to: Lys2 peptide | PANC-1 lysate | 2.5 µM |  | inhibition | 1.5%
CC1=NN(c2cccc([N+](=O)[O-])c2)C(=O)C1=NNc1ccc(S(N)(=O)=O)cc1 | bovine α-glucosidase | enzyme activity, inhibitor, glucose oxidase |  | 200 µg/mL, added: maltose |  | inhibition | 50.4%
COc1cccc(OC[C@@H]2CN(CCN3CCc4ccccc43)CCO2)c1 | HTR1D | radioligand binding |  | concentration not given, added: [3H]5-CT |  | inhibition | 55.6%
CC1=NOC(=O)C1=NNc1ccc(S(N)(=O)=O)cc1 | bovine α-glucosidase | enzyme activity, inhibitor, glucose oxidase |  | 500 µg/mL, added: maltose |  | inhibition | 45.5%
COc1cc2ncnc(Nc3ccc(Oc4ccccc4)c(C)c3C)c2cc1OC | Proto-oncogene tyrosine-protein kinase Src, N1 isoform (SRC, Homo sapiens, UniProt P12931) | kinase activity, inhibitor |  | 1 µM |  | inhibition | 67%
CC1=NN(c2ccc(C)cc2)C(=O)C1=NNc1ccc(S(N)(=O)=O)cc1 | bovine α-glucosidase | enzyme activity, inhibitor, glucose oxidase |  | 100 µg/mL, added: maltose |  | inhibition | 35.1%
Cc1nn(-c2nc3ccc(Cl)c(Cl)c3[nH]2)c(O)c1C1OC(=O)c2ccccc21 (centres unmarked) | Cgas | enzyme activity, inhibitor, pyrophosphatase-coupled |  | 0.5 µM, 1.5 h, mouse enzyme |  | inhibition | 77.2%
O=C(CN1CCO[C@H](COc2ccccc2)C1)N1CCc2ccccc21 | HTR1D | radioligand binding |  | concentration not given, added: [3H]5-CT |  | inhibition | 10.2%
Cc1cc2c(cc1N1C(=O)c3cccc4c(CCCO)ccc(c34)C1=O)n(C)c(=O)n2C (racemic) | KAT2B (Homo sapiens, UniProt Q92831) | binding, BROMOscan binding |  | 100 nM |  | inhibition | 88%
COc1cc(-c2cc(C(C)=O)n3ccccc23)cc(OC)c1Cn1ccnc1 | CREBBP (Homo sapiens, UniProt Q92793) |  |  | 1 µM |  | inhibition | 20.5%
O=c1c(O)cc([C@H]2Oc3cc(O)cc(O)c3C[C@H]2O)cc2c([C@H]3Oc4cc(O)cc(O)c4C[C@H]3O)cc(O)c(O)c12 | alpha-amylase | enzyme activity, inhibitor, DNS method |  | 250 µg/mL, added: soluble starch |  | inhibition | 84.5%
C[N+](C)(C)Cc1cccc(N=Nc2cccc(C[N+](C)(C)C)c2)c1 | muscarinic receptor, Rana | agonist-induced potassium current, antagonist, double sucrose gap voltage clamp | atrial trabeculae | 20 µM, added: carbachol 5 µM |  | inhibition | 10 to 20%
CC1=NN(c2ccccc2)C(=O)C1=NNc1ccc(S(N)(=O)=O)cc1 | bovine α-glucosidase | enzyme activity, inhibitor, glucose oxidase |  | 100 µg/mL, added: maltose |  | inhibition | 38%
c1cncc(OC[C@@H]2CN(CCN3CCc4ccccc43)CCO2)c1 | HTR1D | radioligand binding |  | concentration not given, added: [3H]5-CT |  | inhibition | 22.4%

Repeated from above:
Compound | tested on | assay | system | conditions | scale | measurement | result
COc1cc(-c2cc(C(C)=O)n3ccccc23)cc(OC)c1Cn1ccnc1 | CREBBP (Homo sapiens, UniProt Q92793) |  |  | 1 µM |  | inhibition | 20.5%
Cn1cc(-c2ccc(-c3cncc(Cl)c3N3CCC4(CCNC4=O)CC3)cc2)cn1 | COLO 205 | microarray, refers to: DBI |  | concentration not given, 6 h | relative to: untreated cells | fold change in expression | -1.55
Clc1cccc(OC[C@@H]2CN(CCN3CCc4ccccc43)CCO2)c1 | HTR1D | radioligand binding |  | concentration not given, added: [3H]5-CT |  | inhibition | 74%
CC1=NN(c2cccc([N+](=O)[O-])c2)C(=O)C1=NNc1ccc(S(N)(=O)=O)cc1 | bovine α-glucosidase | enzyme activity, inhibitor, glucose oxidase |  | 200 µg/mL, added: maltose |  | inhibition | 50.4%
O=C(CN1CCO[C@H](COc2ccccc2)C1)N1CCc2ccccc21 | HTR1D | radioligand binding |  | concentration not given, added: [3H]5-CT |  | inhibition | 10.2%
